Measurements gathered from unrelated publications.
Protocols differ between the studies behind these lines. Several values in a cell are separate wells, animals, samples, runs or records. ± marks the error that the study gave.
ABCG2: Broad substrate specificity ATP-binding cassette transporter ABCG2 (ABCG2, Homo sapiens, UniProt Q9UNQ0)
Sequence of UniProt Q9UNQ0 (whole entry, looked up): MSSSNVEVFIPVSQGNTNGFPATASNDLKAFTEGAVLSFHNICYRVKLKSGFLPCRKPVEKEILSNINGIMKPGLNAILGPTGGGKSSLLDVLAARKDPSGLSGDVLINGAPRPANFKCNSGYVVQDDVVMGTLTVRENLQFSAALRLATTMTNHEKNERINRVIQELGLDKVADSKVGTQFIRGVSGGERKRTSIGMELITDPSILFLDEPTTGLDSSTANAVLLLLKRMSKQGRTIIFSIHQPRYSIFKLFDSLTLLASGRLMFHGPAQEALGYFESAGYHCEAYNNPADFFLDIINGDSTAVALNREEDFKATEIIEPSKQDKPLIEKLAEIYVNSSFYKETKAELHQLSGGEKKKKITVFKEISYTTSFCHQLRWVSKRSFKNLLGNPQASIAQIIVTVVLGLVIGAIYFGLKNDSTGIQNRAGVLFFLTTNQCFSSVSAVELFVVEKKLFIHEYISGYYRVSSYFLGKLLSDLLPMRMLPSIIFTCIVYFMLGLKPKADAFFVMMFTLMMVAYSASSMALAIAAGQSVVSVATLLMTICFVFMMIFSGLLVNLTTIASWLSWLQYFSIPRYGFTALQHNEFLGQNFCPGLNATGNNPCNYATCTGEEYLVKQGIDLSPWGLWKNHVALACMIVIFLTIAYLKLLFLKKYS
Sequence of UniProt Q86VL8 (whole entry, looked up): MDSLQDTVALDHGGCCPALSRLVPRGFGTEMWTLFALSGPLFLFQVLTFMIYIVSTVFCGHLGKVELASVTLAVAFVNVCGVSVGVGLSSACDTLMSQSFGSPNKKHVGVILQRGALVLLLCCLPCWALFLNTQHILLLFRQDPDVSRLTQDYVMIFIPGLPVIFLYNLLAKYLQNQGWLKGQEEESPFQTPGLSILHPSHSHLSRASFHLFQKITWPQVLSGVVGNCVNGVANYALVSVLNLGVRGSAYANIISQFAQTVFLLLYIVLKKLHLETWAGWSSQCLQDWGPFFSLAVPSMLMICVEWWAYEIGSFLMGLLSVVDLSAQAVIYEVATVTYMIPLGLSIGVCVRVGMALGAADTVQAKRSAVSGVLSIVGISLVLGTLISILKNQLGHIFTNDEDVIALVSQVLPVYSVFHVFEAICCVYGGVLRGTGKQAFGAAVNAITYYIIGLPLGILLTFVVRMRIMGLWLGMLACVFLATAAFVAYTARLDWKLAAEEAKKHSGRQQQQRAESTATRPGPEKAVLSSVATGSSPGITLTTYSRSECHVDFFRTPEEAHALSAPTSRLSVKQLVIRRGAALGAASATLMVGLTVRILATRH

With `NC(=O)c1ncn([C@@H]2O[C@H](CO)[C@@H](O)[C@H]2O)n1` the inhibition was -9.47e-15% (Multidrug and toxin extrusion protein 2 (SLC47A2, Homo sapiens, UniProt Q86VL8); transport, inhibitor; transiently transfected cells; 100 µM, 10 (unit not given), added: thiamine).
For `CCN(CC)C(=O)[C@@H]1C=C2c3cccc4[nH]cc(c34)C[C@H]2N(C)C1`, “List of Complaints score” read 2 (item: hypersensitivity to odours; healthy volunteers; dose not given, 12 to 24 h; reference: placebo, direction not given).
Under “patients with adverse event”, `CN1CC[C@@H](c2c(O)cc(O)c3c(=O)cc(-c4ccc(C(F)(F)F)cc4Cl)oc23)[C@@H]1CO` is recorded as 0% (item: Chills; B-cell malignancies or AML; oral, 100 mg, continuous dosing).
`Cc1ccc(NC(=O)c2cccc(C(C)(C)C#N)c2)cc1Nc1ccc2ncn(C)c(=O)c2c1` gave a maximum inhibition of 2.74% (human coronavirus OC43; virus-induced cell killing; MRC-5; screen).
`O=C1c2c(O)c(=O)ccn2N([C@@H]2c3ccccc3SCc3c2ccc(F)c3F)[C@@H]2COCCN12` gave a trough concentration of 2.56 ng/mL (BALB/c mouse; subcutaneous, 0.5 mg/kg q12h).
`Fc1ccc(C2=CCNCC2)cc1` gave a survival of 88.3% (Salmonella typhimurium; SOS/umu test; TA1535/pSK1002; 0.031 mg/mL, 4 h, with S9, full range).
For `Cc1cc(C(=O)NC(C)(C)COc2cccc3c2C(N)=NS(=O)(=O)N3)cc(C)n1`, the revertant ratio was 1 (Salmonella typhimurium; Ames test; TA100; 1500 µg/plate, without S9; reference: treated over solvent).
`CN(C)c1cccc(C(=O)NCC2CCN(c3cc(-c4ccc(Cl)cc4)n[nH]3)CC2)c1` gave a maximum response of -21.7% (Vero-E6; CellTiter-Glo ATP; 72 h, retest 8-point duplicates; reference: DMSO 0%, hyamine -100%, more negative, more toxic).
The viability of `CC(C)C[C@@H](N)C(=O)N[C@H](CC(C)C)C(=O)N[C@H](Cc1ccccc1)C(=O)N[C@H](Cc1ccccc1)C(=O)N[C@H](C)C(N)=O` is reported as 98.8% (NGF-differentiated PC-12 neurons; 5 µM, 24 h; reference: untreated).
`Cc1noc2c(NC3CCOCC3)cc(-c3cccc(C(F)(F)F)c3)nc12` gave a maximum response of -44% (Vero-E6; CellTiter-Glo ATP; 72 h, retest 8-point duplicates; reference: DMSO 0%, hyamine -100%, more negative, more toxic).
The plasma concentration of `CCCC(C(=O)c1ccc(O)c(OC)c1)N1CCCC1` (stereo not shown) is reported as 0.133 ± 0.0088 µg/mL (LC-MS/MS; rat, trunk blood plasma; subcutaneous, 4 mg/kg MDPV, 240 min).
`Cc1ccc(Cl)cc1N1CCN(CCCNc2ncnc3onc(-c4ccc(F)cc4)c23)CC1` has a maximum response of -1.79% (Vero-E6; CellTiter-Glo ATP; 72 h, first round 5-point; reference: DMSO 0%, hyamine -100%, more negative, more toxic).
`C[C@]1(CO)Cc2ncn(-c3ccc(C#N)c(Cl)c3)c2C(=O)O1` — result for “subjects with any TEAE”: 0% (human; 40 mg single dose).
For `CO[C@H]1C[C@@H]2CC[C@@H](C)[C@@](O)(O2)C(=O)C(=O)N2CCCC[C@H]2C(=O)O[C@H]([C@H](C)C[C@@H]2CC[C@@H](OC(=O)NCCOCCOCCOCCOCCOCCOCCOCCOCCC(=O)N3CCc4cc(Cn5nc(-c6ccc7oc(N)nc7c6)c6c(N)ncnc65)ccc4C3)[C@H](OC)C2)C[C@@H](O)[C@H](C)/C=C(\C)[C@@H](O)[C@@H](OC)C(=O)[C@H](C)C[C@H](C)/C=C/C=C/C=C/1C`, “decreased appetite leading to dose reduction” read 0% (dose-escalation trial; patients with advanced solid tumours; intravenous, all doses weekly, grade ≥3).
`[Cl-].[Cl-].[Pt+2].[Ru+2].c1ccc(-c2nc3ccccc3nc2-c2ccccn2)nc1.c1cnc2c(c1)ccc1cccnc12.c1cnc2c(c1)ccc1cccnc12` gave a hatching rate of 3.33 ± 3.7% (Danio rerio; embryos; 75 µM, 48 h).
With `CC(=O)c1c(C)c2cnc(Nc3ccc(C4CCN(CCS(C)(=O)=O)CC4)cn3)nc2n(C2CCCC2)c1=O` the AUC(0-inf) was 0.679 µg·h/mL (human, plasma; oral, 75 mg twice daily, day 1, single dose, added: letrozole).
The plasma concentration of `CCCC(C(=O)c1ccc2c(c1)OCO2)N1CCCC1.Cl` (racemic) is reported as 0.0081 ± 0.0006 µg/mL (LC-MS/MS; rat, trunk blood plasma; subcutaneous, 1 mg/kg, 240 min).
For `CCc1cc(Nc2nccc(-c3c(-c4ccc(OC)c(C(=O)Nc5c(F)cccc5F)c4)nc4ccccn34)n2)c(OC)cc1N1CCC(N2CCN(S(C)(=O)=O)CC2)CC1`, the maximum inhibition was 53.5% (human coronavirus OC43; virus-induced cell killing; MRC-5; screen).
Under “fold increase in revertants”, `CC(=O)N1CCC(C(=O)N2CCN3C(=O)c4cc(-c5ccccc5)ccc4NC(=O)C3C2)CC1` (stereo not shown) is recorded as 1 (Salmonella typhimurium; TA98; 500 µg/plate, added: rat liver S9; reference: vehicle).
With `CN/C(=N\[N+](=O)[O-])NCc1cnc(Cl)s1` the recovery was 58% (soil; 0.12 nominal, 0 days, Folsomia candida soil test).
The maximum response of `O=C(Nc1cccc(Cl)c1)C1CCCN(Cc2cccc(-c3ccc(F)cc3F)c2)C1` (stereo not shown) is reported as 2.17% (Vero-E6; CellTiter-Glo ATP; 72 h, retest 8-point duplicates; reference: DMSO 0%, hyamine -100%, more negative, more toxic).
The inhibition of `NC(=O)c1nc(F)c[nH]c1=O` is reported as 10.1% (ABCG2; transport, inhibitor; 100 µM, 5 (unit not given), pH 7, added: CCK-8).
Under micronucleus induction, `O=NN1CCN(c2cc3c(cc2F)c(=O)c(C(=O)O)cn3C2CC2)CC1` is recorded as “negative” (TK6).
`COc1cc2c(Oc3ccc4[nH]c(C)cc4c3F)ccnc2cc1OCC1(N)CC1` gave a Dizzy incidence of 0% (paediatric refractory sarcoma patients; 10 mg).
For `CCn1c2ccccc2c2cc(CN3CCN(Cc4cccc(Cl)c4)CC3)ccc21`, the maximum response was -3.35% (Vero-E6; CellTiter-Glo ATP; 72 h, retest 8-point duplicates; reference: DMSO 0%, hyamine -100%, more negative, more toxic).
The inhibition of `COc1ccc2cc1Oc1ccc(cc1)C[C@H]1c3cc(c(OC)cc3CCN1C)Oc1c(OC)c(OC)cc3c1[C@H](C2)N(C)CC3` is reported as 8.1% (ABCG2; transport, inhibitor; 10 µM, 5 (unit not given), pH 7, added: CCK-8).
With `CCCC(C(=O)c1ccc(O)c(O)c1)N1CCCC1` (stereo not shown) the brain-to-plasma ratio was 0.1 (rat; subcutaneous, 2 mg/kg MDPV, 40 min).
Under “enzyme contribution to CLint”, `CC1(C)[C@H](C(=O)OCc2cccc(Oc3ccccc3)c2)[C@@H]1C=C(Cl)Cl` is recorded as 2.99% (human CYP2B6; IVIVE from expressed enzymes; human, liver, in vivo scaled; 0.1 µM, age-specific).
For `CCCCN(CCCNC(=O)c1cc(Nc2cccc(SC)c2)nc2ccccc12)Cc1ccccc1`, the maximum response was -8.97% (Vero-E6; CellTiter-Glo ATP; 72 h, second round 5-point; reference: DMSO 0%, hyamine -100%, more negative, more toxic).
With `CNC(=O)c1c(C)oc2cc(Oc3ccnc4cc(OCCN5CCOCC5)ccc34)ccc12` the haemoglobin level was 19.5 g/dL (human; 6 mg twice daily, cycle 8).
`Cc1ccc2nc(Cl)c3cc(C(=O)NCCCN4CCC(C)CC4)sc3c2c1` gave a cytotoxicity efficacy of -14.9% (Vero-E6; CellTiter-Glo ATP; concentration not given, 72 h, second round 5-point; reference: DMSO 0%, hyamine -100%, more negative, more toxic).
For `CC(C)C[C@@H](N)C(=O)N1CCC[C@@H]1C(=O)N[C@H](Cc1ccccc1)C(=O)N[C@H](Cc1ccccc1)C(=O)N[C@H](C)C(N)=O`, the viability was 100% (NGF-differentiated PC-12 neurons; 5 µM, 24 h; reference: untreated).
For `COc1ccccc1-c1ccc(CN2CCCC(c3nc4ccc(C)cc4c(=O)[nH]3)C2)cc1` (stereo not shown), the AC50 was 12.6 µM (Vero E6 cells; cytotoxicity, CellTiter-Glo; no virus).
With `CC(C)C[C@H](NC(=O)[C@H](C)NC(=O)[C@@H](NC(=O)[C@H](CCCNC(=N)N)NC(=O)[C@H](CC(C)C)NC(=O)[C@H](Cc1c[nH]c2ccccc12)NC(=O)[C@@H]1CCCN1C(=O)[C@@H](N)CCCCN)C(C)C)C(=O)N[C@@H](CS)C(=O)N1CCC[C@H]1C(=O)NCC(=O)O` the viability was 108% and 98.2% and 102% (HEp-2; WST-1; 128 µM, 24 h).

A few entries again:
`Cc1ccc(NC(=O)c2cccc(C(C)(C)C#N)c2)cc1Nc1ccc2ncn(C)c(=O)c2c1` gave a maximum inhibition of 2.74% (human coronavirus OC43; virus-induced cell killing; MRC-5; screen).
`O=C1c2c(O)c(=O)ccn2N([C@@H]2c3ccccc3SCc3c2ccc(F)c3F)[C@@H]2COCCN12` gave a trough concentration of 2.56 ng/mL (BALB/c mouse; subcutaneous, 0.5 mg/kg q12h).
`Fc1ccc(C2=CCNCC2)cc1` gave a survival of 88.3% (Salmonella typhimurium; SOS/umu test; TA1535/pSK1002; 0.031 mg/mL, 4 h, with S9, full range).
